Published values collected from several papers.
Each numbered part is a random draw from the data of one study; scales do not carry over between parts. “And” joins repeats or separate records; there may be more than shown.
Chain of UniProt Q12866 (whole entry, looked up): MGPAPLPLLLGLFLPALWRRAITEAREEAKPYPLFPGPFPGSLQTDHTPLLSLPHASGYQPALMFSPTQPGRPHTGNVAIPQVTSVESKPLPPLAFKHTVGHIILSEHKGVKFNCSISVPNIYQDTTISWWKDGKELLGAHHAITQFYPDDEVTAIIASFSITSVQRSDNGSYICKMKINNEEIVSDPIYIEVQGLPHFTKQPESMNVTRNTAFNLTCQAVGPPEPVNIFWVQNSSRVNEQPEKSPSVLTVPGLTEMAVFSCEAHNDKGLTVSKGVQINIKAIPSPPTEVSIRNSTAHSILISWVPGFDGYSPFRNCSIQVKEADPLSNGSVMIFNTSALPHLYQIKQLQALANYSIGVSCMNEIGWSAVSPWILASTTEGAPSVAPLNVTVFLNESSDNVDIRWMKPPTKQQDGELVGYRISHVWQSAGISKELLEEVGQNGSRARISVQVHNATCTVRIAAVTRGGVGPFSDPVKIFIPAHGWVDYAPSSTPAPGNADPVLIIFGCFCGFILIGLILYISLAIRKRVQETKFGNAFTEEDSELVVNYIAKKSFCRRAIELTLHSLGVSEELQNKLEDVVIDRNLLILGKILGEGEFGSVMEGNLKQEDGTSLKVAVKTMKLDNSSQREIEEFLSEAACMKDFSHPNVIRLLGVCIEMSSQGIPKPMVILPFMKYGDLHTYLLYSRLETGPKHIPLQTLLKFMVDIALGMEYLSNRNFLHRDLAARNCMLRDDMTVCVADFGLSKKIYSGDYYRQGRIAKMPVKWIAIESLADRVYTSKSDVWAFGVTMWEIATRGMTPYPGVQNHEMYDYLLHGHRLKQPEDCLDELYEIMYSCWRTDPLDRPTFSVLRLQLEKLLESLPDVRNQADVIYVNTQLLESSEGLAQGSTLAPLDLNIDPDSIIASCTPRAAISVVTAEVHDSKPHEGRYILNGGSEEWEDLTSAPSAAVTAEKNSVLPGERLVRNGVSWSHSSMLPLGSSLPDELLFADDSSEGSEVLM
Chain of UniProt P35368 (whole entry, looked up): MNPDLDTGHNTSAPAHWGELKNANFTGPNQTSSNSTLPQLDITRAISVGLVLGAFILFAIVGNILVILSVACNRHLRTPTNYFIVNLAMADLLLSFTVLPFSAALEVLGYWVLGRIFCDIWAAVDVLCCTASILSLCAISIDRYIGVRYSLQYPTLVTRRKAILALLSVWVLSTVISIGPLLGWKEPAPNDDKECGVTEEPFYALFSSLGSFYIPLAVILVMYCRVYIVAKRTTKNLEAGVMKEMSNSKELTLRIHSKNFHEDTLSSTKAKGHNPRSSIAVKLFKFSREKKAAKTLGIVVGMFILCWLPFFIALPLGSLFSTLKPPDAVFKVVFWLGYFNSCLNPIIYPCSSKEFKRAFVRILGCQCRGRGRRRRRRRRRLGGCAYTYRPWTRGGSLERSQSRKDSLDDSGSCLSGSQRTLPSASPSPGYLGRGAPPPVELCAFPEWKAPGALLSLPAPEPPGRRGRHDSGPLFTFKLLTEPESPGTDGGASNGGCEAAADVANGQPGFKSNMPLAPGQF
Chain of UniProt P08912 (whole entry, looked up): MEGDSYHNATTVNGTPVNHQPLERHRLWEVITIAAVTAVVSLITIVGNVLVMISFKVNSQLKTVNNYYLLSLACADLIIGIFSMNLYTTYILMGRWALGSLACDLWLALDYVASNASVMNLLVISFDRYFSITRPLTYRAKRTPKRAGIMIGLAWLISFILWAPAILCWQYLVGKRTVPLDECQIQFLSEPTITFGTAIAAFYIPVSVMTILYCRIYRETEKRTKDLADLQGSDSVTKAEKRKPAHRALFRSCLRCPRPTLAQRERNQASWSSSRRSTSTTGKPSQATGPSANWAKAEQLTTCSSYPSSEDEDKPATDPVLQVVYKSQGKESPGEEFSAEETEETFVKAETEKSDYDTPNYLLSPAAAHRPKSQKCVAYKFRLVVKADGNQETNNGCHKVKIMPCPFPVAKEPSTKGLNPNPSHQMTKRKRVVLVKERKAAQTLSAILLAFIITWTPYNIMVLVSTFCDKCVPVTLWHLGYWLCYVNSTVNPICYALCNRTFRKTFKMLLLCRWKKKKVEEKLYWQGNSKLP
Chain of UniProt P18825 (whole entry, looked up): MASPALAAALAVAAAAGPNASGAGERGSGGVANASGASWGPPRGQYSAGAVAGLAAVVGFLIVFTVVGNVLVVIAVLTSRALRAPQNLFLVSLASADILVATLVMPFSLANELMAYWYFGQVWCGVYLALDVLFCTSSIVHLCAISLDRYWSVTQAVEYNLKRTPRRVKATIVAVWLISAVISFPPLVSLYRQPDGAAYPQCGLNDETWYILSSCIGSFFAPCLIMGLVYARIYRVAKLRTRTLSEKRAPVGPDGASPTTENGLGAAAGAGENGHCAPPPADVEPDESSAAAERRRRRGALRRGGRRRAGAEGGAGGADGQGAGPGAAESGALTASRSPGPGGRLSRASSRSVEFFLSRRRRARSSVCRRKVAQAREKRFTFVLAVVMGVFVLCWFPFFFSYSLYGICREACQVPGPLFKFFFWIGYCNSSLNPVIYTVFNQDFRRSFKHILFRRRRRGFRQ
Chain of UniProt P07550 (whole entry, looked up): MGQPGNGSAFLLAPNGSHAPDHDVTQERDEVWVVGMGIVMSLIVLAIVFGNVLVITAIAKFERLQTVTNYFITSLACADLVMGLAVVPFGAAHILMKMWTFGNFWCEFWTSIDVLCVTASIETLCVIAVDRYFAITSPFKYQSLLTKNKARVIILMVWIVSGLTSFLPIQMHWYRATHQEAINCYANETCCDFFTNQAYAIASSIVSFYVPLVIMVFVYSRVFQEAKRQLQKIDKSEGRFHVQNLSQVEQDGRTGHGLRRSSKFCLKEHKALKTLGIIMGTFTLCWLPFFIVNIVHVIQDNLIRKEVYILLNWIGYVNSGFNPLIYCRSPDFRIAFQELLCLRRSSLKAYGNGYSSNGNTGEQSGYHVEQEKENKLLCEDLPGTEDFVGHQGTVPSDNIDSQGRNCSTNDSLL
Chain of UniProt P10398 (whole entry, looked up): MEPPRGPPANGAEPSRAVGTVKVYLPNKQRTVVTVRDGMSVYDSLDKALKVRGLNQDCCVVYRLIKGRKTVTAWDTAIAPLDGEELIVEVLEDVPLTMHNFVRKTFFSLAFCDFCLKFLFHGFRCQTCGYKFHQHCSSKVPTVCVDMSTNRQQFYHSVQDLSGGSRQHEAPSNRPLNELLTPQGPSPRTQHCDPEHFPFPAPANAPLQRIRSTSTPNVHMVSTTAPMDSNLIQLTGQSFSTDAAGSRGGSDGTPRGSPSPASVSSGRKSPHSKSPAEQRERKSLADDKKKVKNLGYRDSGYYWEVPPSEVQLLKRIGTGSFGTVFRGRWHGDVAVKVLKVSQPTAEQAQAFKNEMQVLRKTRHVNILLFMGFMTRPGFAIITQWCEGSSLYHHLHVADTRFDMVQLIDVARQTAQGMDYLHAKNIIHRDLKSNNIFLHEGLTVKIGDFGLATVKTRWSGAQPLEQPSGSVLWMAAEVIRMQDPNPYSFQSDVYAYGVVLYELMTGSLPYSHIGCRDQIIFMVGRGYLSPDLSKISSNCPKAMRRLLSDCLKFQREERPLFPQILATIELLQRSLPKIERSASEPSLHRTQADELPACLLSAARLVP
Chain of UniProt Q5BJF2 (whole entry, looked up): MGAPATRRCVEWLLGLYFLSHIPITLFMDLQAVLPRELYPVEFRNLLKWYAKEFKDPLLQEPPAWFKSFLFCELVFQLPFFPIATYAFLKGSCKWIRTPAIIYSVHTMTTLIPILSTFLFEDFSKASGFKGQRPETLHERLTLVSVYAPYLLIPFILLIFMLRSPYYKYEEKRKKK
Chain of UniProt P35348 (whole entry, looked up): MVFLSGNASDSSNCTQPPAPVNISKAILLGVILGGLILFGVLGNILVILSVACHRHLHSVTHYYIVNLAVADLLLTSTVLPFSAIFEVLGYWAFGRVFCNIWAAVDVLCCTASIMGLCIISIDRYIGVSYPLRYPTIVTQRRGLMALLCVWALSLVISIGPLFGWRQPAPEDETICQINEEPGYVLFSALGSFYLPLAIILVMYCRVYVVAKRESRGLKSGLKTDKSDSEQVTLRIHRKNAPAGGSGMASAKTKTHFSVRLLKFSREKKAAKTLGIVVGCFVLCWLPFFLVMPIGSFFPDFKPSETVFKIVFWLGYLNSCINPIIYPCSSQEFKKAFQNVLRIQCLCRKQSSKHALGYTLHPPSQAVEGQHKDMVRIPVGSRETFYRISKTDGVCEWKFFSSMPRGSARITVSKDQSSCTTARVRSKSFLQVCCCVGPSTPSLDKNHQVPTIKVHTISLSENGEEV
Chain of UniProt P27361 (whole entry, looked up): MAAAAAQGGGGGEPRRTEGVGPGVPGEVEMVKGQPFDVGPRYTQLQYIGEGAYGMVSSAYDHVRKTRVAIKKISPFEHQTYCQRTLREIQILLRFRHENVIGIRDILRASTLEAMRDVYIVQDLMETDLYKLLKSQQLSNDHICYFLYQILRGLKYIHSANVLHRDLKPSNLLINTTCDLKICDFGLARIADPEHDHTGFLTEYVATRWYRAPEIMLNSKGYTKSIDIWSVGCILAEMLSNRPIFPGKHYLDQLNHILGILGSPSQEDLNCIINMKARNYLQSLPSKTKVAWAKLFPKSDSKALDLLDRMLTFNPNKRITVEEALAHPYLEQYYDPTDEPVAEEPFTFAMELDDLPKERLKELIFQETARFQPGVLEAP
Chain of UniProt Q99720 (whole entry, looked up): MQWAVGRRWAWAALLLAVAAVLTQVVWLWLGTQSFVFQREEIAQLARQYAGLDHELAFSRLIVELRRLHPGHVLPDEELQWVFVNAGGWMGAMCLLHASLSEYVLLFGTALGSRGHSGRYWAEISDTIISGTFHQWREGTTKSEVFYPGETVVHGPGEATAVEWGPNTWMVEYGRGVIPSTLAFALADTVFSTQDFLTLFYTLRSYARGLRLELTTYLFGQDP

Block 1
SMILES: CN(C)C(=O)Cn1cc(-c2nc(C3(c4ccc(-c5cnc(N)nc5)cc4)CC3)no2)cn1
Read-out: cell-free assay
Concentration: 10 µM
The inhibition was 4.1% (ADRA2C (Homo sapiens, UniProt P18825)).
The inhibition was 3.05% (ADRB3 (Homo sapiens, UniProt P13945)).
It gave -0.311% for inhibition (CHRM2 (Homo sapiens, UniProt P08172)).
It gave -27.3% for inhibition (HTR7 (Homo sapiens, UniProt P34969)).
DRD3 (Homo sapiens, UniProt P35462) — inhibition: -2.44%.
The inhibition was 3.45% (HRH3 (Homo sapiens, UniProt Q9Y5N1)).
It gave 13.9% for inhibition (ADRA1A (Homo sapiens, UniProt P35348)).
The inhibition was 5.81% (CHRM4 (Homo sapiens, UniProt P08173)).
For ADRA1B (Homo sapiens, UniProt P35368): inhibition read 5.11%.
For HTR6 (Homo sapiens, UniProt P50406): inhibition read -7.48%.
For HRH4 (Homo sapiens, UniProt Q9H3N8): inhibition read 36.6%.
SIGMAR1 (Homo sapiens, UniProt Q99720) — inhibition: -4.19%.
For CHRM5 (Homo sapiens, UniProt P08912): inhibition read -1.63%.
ADRB1 (Homo sapiens, UniProt P08588) — inhibition: 7.58%.
The inhibition was 25% (TMEM97 (Homo sapiens, UniProt Q5BJF2)).
The inhibition was -6.69% (DRD1 (Homo sapiens, UniProt P21728)).
For DRD4 (Homo sapiens, UniProt P21917): inhibition read 1.18%.
ADRA2A (Homo sapiens, UniProt P08913) — inhibition: 22.4%.
The inhibition was -9.18% (HRH2 (Homo sapiens, UniProt P25021)).
The inhibition was 3.55% (ADRB2 (Homo sapiens, UniProt P07550)).

Block 2
Species: human
Matrix: microsomes or S9
Concentration: 2 µM
Time: 0.5 h
With `CC(C)(C)OC(=O)NC1CCN(c2nccn3c(=O)[nH]nc23)CC1` the remaining compound was 45.3%.
`Cc1n[nH]c(C)c1C12CC3CC(CC(CC(=O)O)(C3)C1)C2` has a remaining compound of 99.9%.
For `CCc1c(C(=O)NNc2oc(C(C)C)nc2C#N)cnn1C(C)(C)C`, the remaining compound was 2.91%.
`O=C(c1ccc(Nc2cc(-n3cccc3)ncn2)cc1)N1CCN(Cc2ccc3c(c2)OCO3)CC1` has a remaining compound of 50%.
`c1ccc(CCNCc2cccc(Oc3nnnn3-c3ccccc3)c2)cc1` has a remaining compound of 9.19%.
`Cc1cc2cc(CN(Cc3cccs3)S(=O)(=O)c3ccc(F)cc3)c(=O)[nH]c2cc1C` gave a remaining compound of 9.48%.
`CN(C(=O)c1cnc(N)nc1-c1ccccc1)C1CCCc2ccccc21` (stereo not drawn) has a remaining compound of 20.3%.

Block 3
Compound: CCCCCCCCCCCCCCCCOP(=O)([O-])OCC[N+](C)(C)C
Cell line: THP-1
Read-out: host cell growth
1 µM — inhibition: -0.17% and -4.62% and -0.84% and -0.22% and -0.6% and -1.86%.
For 0.002 µM: inhibition read 0.37% and -1.4% and -1.09% and -0.34% and -0.23% and -0.37%.
0.2 µM — inhibition: -0.35% and -2.26% and -1.5% and -0.49% and -1.44% and -0.41%.

Block 4
SMILES: CN(C)S(=O)(=O)c1ccc2c(c1)/C(=C/c1cc3c([nH]1)CCCC3)C(=O)N2
Read-out: enzyme activity
Action: inhibitor
Concentration: 0.5 µM
Relative to: control
ARAF (Homo sapiens, UniProt P10398) — remaining activity: 105%.
The remaining activity was 95.4% (TEK (Homo sapiens, UniProt Q02763)).
FRK (Homo sapiens, UniProt P42685) — remaining activity: 86%.
It gave 102% for remaining activity (MAPK3 (Homo sapiens, UniProt P27361)).
For MERTK (Homo sapiens, UniProt Q12866): remaining activity read 20.9%.
The remaining activity was 26.3% (ULK2 (Homo sapiens, UniProt Q8IYT8)).
JAK3 (Homo sapiens, UniProt P52333) — remaining activity: 64.8%.
EPHA3 (Homo sapiens, UniProt P29320) — remaining activity: 98.6%.
MAPKAPK2 (Homo sapiens, UniProt P49137) — remaining activity: 101%.
For TAOK2 (Homo sapiens, UniProt Q9UL54): remaining activity read 89.6%.
It gave 52.8% for remaining activity (RPS6KA2 (Homo sapiens, UniProt Q15349)).
The remaining activity was 105% (ACVR1B (Homo sapiens, UniProt P36896)).
For LCK (Homo sapiens, UniProt P06239): remaining activity read 34.7%.
For MAP3K14 (Homo sapiens, UniProt Q99558): remaining activity read 94.6%.
MAP3K5 (Homo sapiens, UniProt Q99683) — remaining activity: 106%.

For quick reference, copied from above (block 3):
1 µM — inhibition: -0.17% and -4.62% and -0.84% and -0.22% and -0.6% and -1.86%.
For 0.002 µM: inhibition read 0.37% and -1.4% and -1.09% and -0.34% and -0.23% and -0.37%.
0.2 µM — inhibition: -0.35% and -2.26% and -1.5% and -0.49% and -1.44% and -0.41%.
